Published values collected from several papers.
Numbers after ± are the reported error.
rep main protease: Replicase polyprotein 1ab, main protease (rep, Severe acute respiratory syndrome coronavirus 2, UniProt P0DTD1)

Under “any TEAE, severe severity”, `Cn1cnc(Cn2c(=O)[nH]/c(=N\c3cc4cn(C)nc4cc3Cl)n(Cc3cc(F)c(F)cc3F)c2=O)n1` is recorded as 0% (human, moderate renal impairment; oral, 375 mg).
For `Nc1ncnc2c([C@@H]3N[C@H](CO)[C@@H](O)[C@H]3O)c[nH]c12`, the inhibition was 32.6% (Junin virus; viral replication; HeLa, Romero; 25 µM).
`CC(C)C[C@H](NC(=O)CNC(=O)[C@H](CC(C)C)NC(=O)[C@H](CC(C)C)NC(=O)[C@H](CC(C)C)NC(=O)[C@H](CCCCN)NC(=O)[C@H](CCCCN)NC(=O)[C@H](CC(C)C)NC(=O)[C@@H](N)CCCCN)C(=O)N[C@@H](CC(C)C)C(=O)N[C@@H](CC(C)C)C(=O)N[C@@H](CCCCN)C(=O)N[C@@H](CCCCN)C(=O)O`: “lowest cytotoxic concentration” over 256 µg/mL (HEK-293T; cell death; 24 h, 10% cell death).
`CC[C@H](C)[C@H](NC(=O)[C@H](CC(C)C)NC(=O)[C@H](Cc1c[nH]c2ccccc12)NC(=O)[C@H](CCC(N)=O)NC(=O)[C@@H](NC(=O)[C@H](Cc1ccccc1)NC(=O)[C@H](C)NC(=O)[C@H](CCCCNC(=O)COCCOCCNC(=O)COCCOCCNC(=O)CC[C@H](NC(=O)CCCCCCCCCCCCCCCCCCC(=O)O)C(=O)O)NC(=O)[C@H](CCC(N)=O)NC(=O)[C@H](C)NC(=O)[C@@H](NC(=O)[C@H](CCCCN)NC(=O)[C@H](CC(=O)O)NC(=O)[C@H](CC(C)C)NC(=O)C(C)(C)NC(=O)[C@@H](NC(=O)[C@H](CO)NC(=O)[C@H](Cc1ccc(O)cc1)NC(=O)[C@H](CC(=O)O)NC(=O)[C@H](CO)NC(=O)[C@@H](NC(=O)[C@H](Cc1ccccc1)NC(=O)[C@@H](NC(=O)CNC(=O)[C@H](CCC(=O)O)NC(=O)C(C)(C)NC(=O)[C@@H](N)Cc1ccc(O)cc1)[C@@H](C)O)[C@@H](C)O)[C@@H](C)CC)[C@@H](C)CC)C(C)C)C(=O)N[C@@H](C)C(=O)NCC(=O)NCC(=O)N1CCC[C@H]1C(=O)N[C@@H](CO)C(=O)N[C@@H](CO)C(=O)NCC(=O)N[C@@H](C)C(=O)N1CCC[C@H]1C(=O)N1CCC[C@H]1C(=O)N1CCC[C@H]1C(=O)N[C@@H](CO)C(N)=O` — result for “change in systolic blood pressure”: 4.88 mmHg (patients with type 2 diabetes; 0.5 mg once weekly x4, day 29, least-squares mean; relative to: baseline).
With `COP(=O)(OC)OC=C(Cl)Cl` the Ki was 657 ± 70 µM (rat CYP1A; ethoxyresorufin O-deethylation, non-competitive inhibitor; rat Sprague-Dawley, liver microsomes; 15 min, pH 7.4, together with: ethoxyresorufin 0.82 to 4.1 µM).
`O=C(NC[C@H](NC(=O)c1cncc2ccccc12)c1ccc2ccccc2c1)C1=COCC1` has an inhibition of 13.3% (rep main protease; enzyme activity, inhibitor; 5 µM, run 1).
`CC(C)C[C@H](NC(=O)CNC(=O)[C@H](CC(C)C)NC(=O)[C@H](CC(C)C)NC(=O)[C@H](CCCCN)NC(=O)[C@H](CCCCN)NC(=O)[C@H](CC(C)C)NC(=O)[C@H](CCCCN)NC(=O)[C@H](CC(C)C)NC(=O)[C@H](CC(C)C)NC(=O)[C@@H](N)CCCCN)C(=O)N[C@@H](CC(C)C)C(=O)N[C@@H](CCCCN)C(=O)O`: “lowest cytotoxic concentration” 256 µg/mL (HEK-293T; cell death; 24 h, 10% cell death).
With `Cc1[nH]cnc1C(=O)NC[C@H](NC(=O)c1c(Cl)ccnc1F)c1ccc2ccccc2c1` the inhibition was 8.7% (rep main protease; enzyme activity, inhibitor; 5 µM, run 2).
The inhibition of `CC(C)(C)OC(=O)N[C@H]1CCCCC/C=C\[C@@H]2C[C@@]2(C(=O)NS(=O)(=O)C2CC2)NC(=O)[C@@H]2C[C@@H](OC(=O)N3Cc4cccc(F)c4C3)CN2C1=O` is reported as 2.73% (rep main protease; reporter gene (Gaussia luciferase), inhibitor; 20 µM).

Excerpt of the above:
`O=C(NC[C@H](NC(=O)c1cncc2ccccc12)c1ccc2ccccc2c1)C1=COCC1` has an inhibition of 13.3% (rep main protease; enzyme activity, inhibitor; 5 µM, run 1).
